# Measured values from different studies.
# Protocols differ between the studies behind these lines. Several values in a cell are separate wells, animals, samples, runs or records. ± marks the error that the study gave.
# SLC29A1: Equilibrative nucleoside transporter 1 (SLC29A1, Homo sapiens, UniProt Q99808)
# Sequence of UniProt Q99808 (whole entry, looked up): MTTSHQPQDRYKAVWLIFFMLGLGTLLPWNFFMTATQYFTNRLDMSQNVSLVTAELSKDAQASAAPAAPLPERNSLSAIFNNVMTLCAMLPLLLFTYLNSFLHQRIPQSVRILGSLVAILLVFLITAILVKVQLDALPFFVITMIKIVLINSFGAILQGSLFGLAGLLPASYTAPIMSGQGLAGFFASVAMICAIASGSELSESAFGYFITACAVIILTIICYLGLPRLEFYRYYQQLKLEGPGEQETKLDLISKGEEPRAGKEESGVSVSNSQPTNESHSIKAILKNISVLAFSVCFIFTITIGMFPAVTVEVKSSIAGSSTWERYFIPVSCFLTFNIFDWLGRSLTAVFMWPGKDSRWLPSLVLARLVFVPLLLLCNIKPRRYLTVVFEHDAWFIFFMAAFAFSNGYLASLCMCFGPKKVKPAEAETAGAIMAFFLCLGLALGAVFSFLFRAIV
# SLC10A1: Hepatic sodium/bile acid cotransporter (SLC10A1, Homo sapiens, UniProt Q14973)
# Sequence of UniProt Q14973 (whole entry, looked up): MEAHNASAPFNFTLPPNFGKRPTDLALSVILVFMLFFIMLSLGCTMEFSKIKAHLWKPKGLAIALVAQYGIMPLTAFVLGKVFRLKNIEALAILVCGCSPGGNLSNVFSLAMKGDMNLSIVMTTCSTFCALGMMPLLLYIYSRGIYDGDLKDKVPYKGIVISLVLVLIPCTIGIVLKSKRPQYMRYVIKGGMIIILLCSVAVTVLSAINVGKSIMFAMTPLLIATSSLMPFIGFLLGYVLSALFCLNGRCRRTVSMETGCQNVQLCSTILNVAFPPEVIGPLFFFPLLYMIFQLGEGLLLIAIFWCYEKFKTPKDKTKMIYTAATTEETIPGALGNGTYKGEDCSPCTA
# Sigma-2 receptor: Sigma-2 receptor (Cavia porcellus, UniProt H0V073)
# MAPT neurofibrillary tangles: Microtubule-associated protein tau, neurofibrillary tangles (MAPT, Homo sapiens, UniProt P10636)
# Sequence of UniProt P10636 (whole entry, looked up): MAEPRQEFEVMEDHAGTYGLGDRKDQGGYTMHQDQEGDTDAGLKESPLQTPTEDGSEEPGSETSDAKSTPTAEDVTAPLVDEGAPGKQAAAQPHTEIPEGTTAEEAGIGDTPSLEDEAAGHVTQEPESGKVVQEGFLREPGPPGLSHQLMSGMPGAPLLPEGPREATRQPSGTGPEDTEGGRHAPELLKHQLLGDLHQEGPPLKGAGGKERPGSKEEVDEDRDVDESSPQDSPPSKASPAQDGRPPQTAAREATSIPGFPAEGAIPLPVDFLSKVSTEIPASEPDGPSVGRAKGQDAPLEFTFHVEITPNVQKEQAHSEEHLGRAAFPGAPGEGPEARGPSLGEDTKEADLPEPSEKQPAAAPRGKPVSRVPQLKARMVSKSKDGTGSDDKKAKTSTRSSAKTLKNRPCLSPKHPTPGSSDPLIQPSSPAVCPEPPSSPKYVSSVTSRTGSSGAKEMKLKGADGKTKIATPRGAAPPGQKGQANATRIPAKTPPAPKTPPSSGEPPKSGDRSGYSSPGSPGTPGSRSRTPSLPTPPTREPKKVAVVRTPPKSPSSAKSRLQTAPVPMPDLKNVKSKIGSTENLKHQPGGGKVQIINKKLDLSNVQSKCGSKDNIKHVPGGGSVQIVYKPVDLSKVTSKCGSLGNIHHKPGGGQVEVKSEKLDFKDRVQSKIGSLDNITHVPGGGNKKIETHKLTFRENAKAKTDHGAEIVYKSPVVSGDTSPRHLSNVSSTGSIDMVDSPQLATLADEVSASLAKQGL
# IDE: Insulin-degrading enzyme (IDE, Homo sapiens, UniProt P14735)
# Sequence of UniProt P14735 (whole entry, looked up): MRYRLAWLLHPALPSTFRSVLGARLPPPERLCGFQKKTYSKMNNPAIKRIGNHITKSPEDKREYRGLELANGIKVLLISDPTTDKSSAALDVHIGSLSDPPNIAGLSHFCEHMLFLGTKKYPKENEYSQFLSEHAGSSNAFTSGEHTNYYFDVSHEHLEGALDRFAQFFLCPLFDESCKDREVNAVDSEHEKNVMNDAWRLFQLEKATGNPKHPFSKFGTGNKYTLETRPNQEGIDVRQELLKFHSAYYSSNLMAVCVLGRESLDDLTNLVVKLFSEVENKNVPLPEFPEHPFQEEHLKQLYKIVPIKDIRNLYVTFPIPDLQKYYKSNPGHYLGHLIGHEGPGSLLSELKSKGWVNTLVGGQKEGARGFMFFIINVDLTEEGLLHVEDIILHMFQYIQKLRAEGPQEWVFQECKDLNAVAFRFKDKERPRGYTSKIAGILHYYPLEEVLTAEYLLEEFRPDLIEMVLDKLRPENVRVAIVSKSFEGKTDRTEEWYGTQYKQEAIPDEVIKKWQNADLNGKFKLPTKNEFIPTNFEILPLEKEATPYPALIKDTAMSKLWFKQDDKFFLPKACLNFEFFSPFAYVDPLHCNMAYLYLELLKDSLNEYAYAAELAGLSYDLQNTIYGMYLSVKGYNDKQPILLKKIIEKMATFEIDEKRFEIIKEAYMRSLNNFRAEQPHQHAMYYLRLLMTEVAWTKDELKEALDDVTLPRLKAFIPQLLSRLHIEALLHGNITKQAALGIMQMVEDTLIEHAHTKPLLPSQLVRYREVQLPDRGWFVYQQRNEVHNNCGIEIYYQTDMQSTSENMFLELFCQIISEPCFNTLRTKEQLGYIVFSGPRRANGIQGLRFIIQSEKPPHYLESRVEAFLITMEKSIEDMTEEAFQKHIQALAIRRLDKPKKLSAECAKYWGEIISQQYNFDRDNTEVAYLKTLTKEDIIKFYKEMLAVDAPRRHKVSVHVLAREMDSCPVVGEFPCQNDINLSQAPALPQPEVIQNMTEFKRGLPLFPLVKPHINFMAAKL
# Cd1d1: Cd1d1 (Mus musculus, UniProt P11609)
# Sequence of UniProt P11609 (whole entry, looked up): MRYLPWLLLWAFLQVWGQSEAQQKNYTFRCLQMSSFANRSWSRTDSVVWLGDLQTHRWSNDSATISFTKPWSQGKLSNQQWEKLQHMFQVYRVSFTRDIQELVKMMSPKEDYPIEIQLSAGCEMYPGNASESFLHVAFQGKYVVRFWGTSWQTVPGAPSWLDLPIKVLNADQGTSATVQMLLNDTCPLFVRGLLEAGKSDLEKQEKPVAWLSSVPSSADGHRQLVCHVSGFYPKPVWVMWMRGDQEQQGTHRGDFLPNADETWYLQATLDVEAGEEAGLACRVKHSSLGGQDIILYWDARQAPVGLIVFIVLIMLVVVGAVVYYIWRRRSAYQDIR
# Sequence of UniProt A3M8H2 (whole entry, looked up): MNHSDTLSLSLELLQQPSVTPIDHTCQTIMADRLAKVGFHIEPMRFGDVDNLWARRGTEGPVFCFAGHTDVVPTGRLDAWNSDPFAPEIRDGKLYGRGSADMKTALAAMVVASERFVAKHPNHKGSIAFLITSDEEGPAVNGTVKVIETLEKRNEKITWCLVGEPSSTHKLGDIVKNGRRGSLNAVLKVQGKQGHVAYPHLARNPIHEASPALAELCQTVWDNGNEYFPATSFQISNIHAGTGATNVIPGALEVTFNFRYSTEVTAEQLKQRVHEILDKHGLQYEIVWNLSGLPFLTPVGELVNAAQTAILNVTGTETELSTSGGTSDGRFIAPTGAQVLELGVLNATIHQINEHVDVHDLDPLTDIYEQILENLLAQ
# Sequence of UniProt Q9QYJ6 (whole entry, looked up): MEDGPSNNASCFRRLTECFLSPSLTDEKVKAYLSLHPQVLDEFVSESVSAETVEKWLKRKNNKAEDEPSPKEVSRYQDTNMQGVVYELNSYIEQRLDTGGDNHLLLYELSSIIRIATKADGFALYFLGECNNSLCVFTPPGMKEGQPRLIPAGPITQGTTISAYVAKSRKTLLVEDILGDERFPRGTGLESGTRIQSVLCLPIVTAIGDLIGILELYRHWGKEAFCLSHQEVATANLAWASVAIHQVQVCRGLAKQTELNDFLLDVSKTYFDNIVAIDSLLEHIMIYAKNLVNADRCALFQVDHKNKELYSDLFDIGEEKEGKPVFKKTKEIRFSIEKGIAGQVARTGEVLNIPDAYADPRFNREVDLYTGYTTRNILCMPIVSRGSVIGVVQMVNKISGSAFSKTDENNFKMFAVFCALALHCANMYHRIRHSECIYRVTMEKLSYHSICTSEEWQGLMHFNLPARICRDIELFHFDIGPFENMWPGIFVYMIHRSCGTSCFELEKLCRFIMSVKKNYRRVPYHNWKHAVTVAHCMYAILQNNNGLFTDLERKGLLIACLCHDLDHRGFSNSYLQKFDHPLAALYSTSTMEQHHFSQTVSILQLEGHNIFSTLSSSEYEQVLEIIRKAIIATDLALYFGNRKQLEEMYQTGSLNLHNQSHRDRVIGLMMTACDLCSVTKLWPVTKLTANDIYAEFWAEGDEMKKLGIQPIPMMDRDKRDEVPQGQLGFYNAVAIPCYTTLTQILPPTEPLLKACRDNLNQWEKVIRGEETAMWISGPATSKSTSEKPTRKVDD
# Sequence of UniProt P97287 (whole entry, looked up): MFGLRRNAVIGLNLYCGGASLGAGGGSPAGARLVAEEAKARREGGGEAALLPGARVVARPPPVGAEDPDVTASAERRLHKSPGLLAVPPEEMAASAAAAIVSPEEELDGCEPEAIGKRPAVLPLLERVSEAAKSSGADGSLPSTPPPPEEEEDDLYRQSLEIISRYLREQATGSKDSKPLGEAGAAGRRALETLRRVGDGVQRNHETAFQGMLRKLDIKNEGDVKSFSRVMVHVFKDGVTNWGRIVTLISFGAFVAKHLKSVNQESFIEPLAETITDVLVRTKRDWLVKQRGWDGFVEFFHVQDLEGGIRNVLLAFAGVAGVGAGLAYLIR
# Sequence of UniProt P21917 (whole entry, looked up): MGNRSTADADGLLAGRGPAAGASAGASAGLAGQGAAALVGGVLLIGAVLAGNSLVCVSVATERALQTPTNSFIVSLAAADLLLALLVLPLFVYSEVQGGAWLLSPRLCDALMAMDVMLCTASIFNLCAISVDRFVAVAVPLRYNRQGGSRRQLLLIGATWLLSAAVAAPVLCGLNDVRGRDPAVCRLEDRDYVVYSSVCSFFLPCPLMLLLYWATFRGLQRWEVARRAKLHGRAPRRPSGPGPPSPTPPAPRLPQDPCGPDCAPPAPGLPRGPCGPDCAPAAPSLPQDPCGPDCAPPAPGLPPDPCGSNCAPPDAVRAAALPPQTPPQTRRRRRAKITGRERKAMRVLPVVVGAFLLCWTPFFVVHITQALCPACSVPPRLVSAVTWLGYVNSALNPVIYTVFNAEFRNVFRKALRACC
Molecule,target,test,system,conditions,Ki
OC[C@H]1O[C@@H](n2cnc3c(O)ncnc32)[C@H](O)[C@@H]1O,SLC29A1,"transporter uptake, inhibitor, radiometric",,,25 µM
C[C@H](CCC(=O)NCCS(=O)(=O)O)C1CC[C@H]2[C@@H]3C[C@H](O)[C@@H]4C[C@H](O)CC[C@]4(C)[C@H]3CC[C@]12C (stereo partly shown),SLC10A1,"transporter uptake, inhibitor, radiometric",,,7.07 µM
CCC(=O)c1ccc2c(c1)sc(=O)n2CCN(C)C12CC3CC(CC(C3)C1)C2,Sigma-2 receptor,radioligand binding,guinea pig brain,with: [3H]DTG with (+)-pentazocine,0.113 ± 0.016 µM
Nc1ccc(-c2ccc3cc(OCCOCCNCCO)ccc3n2)cc1,MAPT neurofibrillary tangles,"binding, radioligand competition",AD brain homogenate,"2 h, 37 °C, with: [3H]THK-523",0.022 ± 0.003 µM
Cc1ccc(N2CN(CC(=O)Nc3cccc(Cl)c3)S(=O)(=O)c3cccnc32)cc1,"Tyrosine--tRNA ligase 1 (tyrS1, Pseudomonas aeruginosa, UniProt Q9HWP3)","aminoacylation, inhibitor",,"with: Tyr 100 µM, ATP 2.5 mM",4.91 µM
COc1ccccc1N1CCN(CC(C(=O)NC(C)(C)C)c2ccccc2)CC1 (stereo not shown),"Pde10a (Rattus norvegicus, UniProt Q9QYJ6)","ligand displacement, radioligand",,cell membranes,> 1 µM
O=c1sc2ccccc2n1CCNC12CC3CC(CC(C3)C1)C2,Sigma-2 receptor,radioligand binding,guinea pig brain,with: [3H]DTG with (+)-pentazocine,0.0641 ± 0.00325 µM
salvianolic acid B,"Prothrombin (F2, Homo sapiens, UniProt P00734)","protease activity, inhibitor, fluorogenic substrate",,"pH 7.4, 25 °C",1.7 ± 0.27 µM
CNc1ccc(-c2nc3ccc(O)cc3s2)cc1,MAPT neurofibrillary tangles,"binding, radioligand competition",AD brain homogenate,"2 h, 37 °C, with: [3H]THK-523",> 1 µM
C[C@H](CCC(=O)NCC(=O)O)[C@H]1CC[C@H]2[C@@H]3[C@H](O)C[C@@H]4C[C@H](O)CC[C@]4(C)[C@H]3CC[C@]12C,SLC10A1,"transporter uptake, inhibitor, radiometric",,,13.2 µM
O=S(=O)(Nc1ccc(=S)n(O)c1)c1cccs1,IDE,"substrate degradation, inhibitor",,"mean of insulin, Aβ, substrate V",43 µM
CC[C@H](C)[C@@H]1NC(=O)[C@H](C)NC(=O)[C@H](CCCNC(=N)N)NC(=O)[C@H](CC(C)C)NC(=O)[C@H](NC(=O)[C@H](C)N(C)C(=O)[C@H](C)N(C)C(=O)OC)CSCc2ccc(cc2)-c2ccc(cc2)CSC[C@@H](C(=O)N[C@H](C(=O)N[C@@H](CC(N)=O)C(=O)N[C@@H](CC(C)C)C(=O)N[C@@H](C)C(=O)N[C@@H](CCC(N)=O)C(=O)N[C@@H](C)C(=O)N[C@@H](CC(C)C)C(=O)N[C@@H](CC(C)C)C(=O)N[C@@H](CC(N)=O)C(N)=O)C(C)C)NC(=O)[C@H](CC(=O)O)NC(=O)CNC1=O,"Induced myeloid leukemia cell differentiation protein Mcl-1 homolog (Mus musculus, UniProt P97287)","ligand displacement, FP",,,0.022 µM
CCCCCCCCCCCCCC[C@@H](O)[C@@H](O)[C@H](CO[C@H]1O[C@H](CO)[C@H](O)[C@H](O)[C@H]1O)NC(=O)CCCCCCCc1ccc(C(F)(F)F)cc1,Cd1d1,competitive binding on microarray,,with: surface-printed ligand,1.2 ± 0.6 µM
O=S(=O)(Nc1cccn(O)c1=S)c1cccs1,IDE,"substrate degradation, fluorescence polarisation",,mean of physiological substrates,7 µM
CCC(=O)c1ccc2c(c1)sc(=O)n2CCNC12CC3CC(CC(C3)C1)C2,Sigma-2 receptor,radioligand binding,guinea pig brain,with: [3H]DTG with (+)-pentazocine,0.0712 ± 0.00311 µM
O=S(=O)(Nc1cccn(O)c1=S)c1ccc(Cl)s1,IDE,"substrate degradation, fluorescence polarisation",,mean of physiological substrates,11 µM
CCCCCCCCCCCCNC(=O)[C@@H]1CCCN1C(=O)[C@@H]1CCCN1,trypsin,"enzyme activity, inhibitor",,,> 1000 µM
CC1(C)[C@H]2CC[C@]1(CS(=O)(=O)Nc1cccn(O)c1=S)C(=O)C2,IDE,"substrate degradation, inhibitor",,"mean of insulin, Aβ, substrate V",18 µM
CC(O)=C(C#N)C(=O)Nc1ccc(-c2cccc(Cl)c2Cl)cc1Cl,"dihydroorotate dehydrogenase (Toxoplasma gondii, UniProt Q8MXD1)",,,,16 µM
Cn1c2c(c3ccccc31)CN(CCCCNC(=O)c1nc3ccccc3[nH]1)CC2,"Slc6a3 (Rattus norvegicus, UniProt P23977)","cell-free assay, inhibitor",,,1.06 µM
C[C@H](CCC(=O)NCCS(=O)(=O)O)[C@H]1CC[C@H]2[C@@H]3[C@H](O)C[C@@H]4C[C@H](O)CC[C@]4(C)[C@H]3CC[C@]12C,SLC10A1,"transporter uptake, inhibitor, radiometric",,,8.13 µM
Cc1cc(OCCCS(C)(=O)=O)cc(C)c1-c1cccc(COc2ccc3c(c2)OC[C@H]3CC(=O)O)c1,SLC10A1,"transporter uptake, inhibitor",,,4.3 µM
CCCCCCCCC[C@@H](O)CC(=O)N[C@@H](CC(N)=O)C(=O)N[C@@H](CCC(N)=O)C(=O)N[C@H](C=O)CC(C)C,"PSMB5 (Homo sapiens, UniProt P28074)","proteasome chymotrypsin-like activity, inhibitor",,"with: suc-LLVY-AMC, PA28",0.00096 µM
On1ccccc1=S,IDE,"substrate degradation, fluorescence polarisation",,mean of physiological substrates,101 µM
O=C(O)Cc1cn2nc(-c3ccc(Cl)cc3)ccc2n1,"Calcium/calmodulin-dependent protein kinase type II subunit alpha (Rattus norvegicus, UniProt P11275)","binding, competitor","HEK293T overexpressing CaMKIIα, whole-cell homogenate",with: [3H]HOCPCA,2.24 µM
C[C@H](CCC(=O)O)[C@H]1CC[C@H]2[C@@H]3CC[C@@H]4C[C@H](O)CC[C@]4(C)[C@H]3CC[C@]12C,SLC10A1,"transporter uptake, inhibitor, radiometric",,,4.09 µM and ~5 µM
O=S(=O)(Nc1cccn(O)c1=S)c1ccsc1,IDE,"substrate degradation, inhibitor",,"mean of insulin, Aβ, substrate V",15 µM
C[C@H](CCC(=O)O)[C@H]1CC[C@H]2[C@@H]3[C@@H](O)C[C@@H]4C[C@H](O)CC[C@]4(C)[C@H]3CC[C@]12C,SLC10A1,"transporter uptake, inhibitor, radiometric",,,10.9 µM
CC1(CCN2CCc3ccccc3C2)Cc2cc(Cl)ccc2C1=O (stereo not shown),"DRD4 (Homo sapiens, UniProt P21917)","binding, radioligand binding",,with: [3H]N-methylspiperone,0.977 µM
CN1CCC2(CC1)c1ccccc1N(Cc1ccc(C(=O)NO)s1)C2c1cccc(Cl)c1 (stereo not shown),"Histone deacetylase 8 (Schistosoma mansoni, UniProt A5H660)","enzyme activity, inhibitor, fluorescence",,,0.06 µM
Nc1ccc(-c2ccc3cc(OCCOCCN4CCOC4=O)ccc3n2)cc1,MAPT neurofibrillary tangles,"binding, radioligand competition",AD brain homogenate,"2 h, 37 °C, with: [3H]THK-523",0.035 ± 0.019 µM
Nc1ccn([C@@H]2O[C@H](CO)[C@@H](O)[C@H]2O)c(=O)n1,Trichomonas vaginalis higher-affinity nucleoside transporter,inhibitor,"trophozoites, Trichomonas vaginalis","higher-affinity phase, rough estimate, with: [3H]-thymidine 125 nM",~15 µM
O=C(/C=C/c1ccc([N+](=O)[O-])cc1)c1nc2ccccc2s1,"Microtubule-associated protein tau, fibrils (MAPT, Homo sapiens, UniProt P10636)","fibril binding, thioflavin T competition",,"1 µM fibrils, with: thioflavin T 4 µM",> 1 µM
Nc1ccc(-c2ccc3cc(OCCOCCN4CCNC4=O)ccc3n2)cc1,MAPT neurofibrillary tangles,"binding, radioligand competition",AD brain homogenate,"2 h, 37 °C, with: [3H]THK-523",0.078 ± 0.007 µM
Nc1nc(Cl)nc2c1ncn2[C@@H]1O[C@H](CO)[C@@H](O)[C@@H]1F,SLC29A1,"transporter uptake, inhibitor, radiometric",,,40 µM
O=C(CN(Cc1ccc(Cl)cc1)C(=O)c1cc2ccccc2[nH]1)NC1CCCCC1,"Protein Mdm4 (MDM4, Homo sapiens, UniProt O15151)","p53 binding, inhibitor, fluorescence polarization",,,19 µM
Cn1cc(S(=O)(=O)Nc2cccn(O)c2=S)cn1,IDE,"substrate degradation, inhibitor",,"mean of insulin, Aβ, substrate V",23 µM
O=C(O)C[C@H](O)C(=O)O,phosphoenolpyruvate carboxylase (Phalaenopsis),inhibitor,desalted leaf extract,"pH 7.5, 25 °C, leaf sampled at dusk, with: 2.5 mM phosphoenolpyruvate",6000 ± 1000 µM
O=c1ccn([C@@H]2O[C@H](CO)[C@@H](O)[C@H]2O)c(=O)[nH]1,SLC29A1,"transporter uptake, inhibitor, radiometric",,,89 µM
CCCCCCCCCCCCCC[C@@H](O)[C@@H](O)[C@H](CO[C@H]1O[C@H](CO)[C@H](O)[C@H](O)[C@H]1O)NC(=O)CCCCCCCc1ccc(OC)cc1,Cd1d1,competitive binding on microarray,,with: surface-printed ligand,0.45 ± 0.15 µM
C[C@H](CS)C(=O)N1CCC[C@H]1C(=O)O,"Succinyl-diaminopimelate desuccinylase (dapE, Acinetobacter baumannii, UniProt A3M8H2)","binding, thermal shift",,native protein,0.79 ± 0.61 µM
Fc1ccc(-c2ccc3c(c2)[nH]c2ccncc23)cn1,MAPT neurofibrillary tangles,"binding, radioligand competition",AD brain homogenate,"2 h, 37 °C, with: [3H]THK-523",> 1 µM
O=C(Nc1cccn(O)c1=S)c1cccs1,IDE,"substrate degradation, inhibitor",,"mean of insulin, Aβ, substrate V",55 µM
